Published values from different studies.
Each numbered part is a random draw from the data of one study; scales do not carry over between parts. Substitutions count along the parent as printed.

Block 1 — method: DHFR PCA, deep sequencing; sample: yeast; with: (+)-ABA 2500 µM; baseline: wild-type fitted maximum; reading: higher = stronger binding
Target: ABI1, truncated, D143A, DHFR fusion (Arabidopsis thaliana)
Notes: methotrexate growth selection, single substitutions
Parent: PYL1, truncated, DHFR fusion (Arabidopsis thaliana); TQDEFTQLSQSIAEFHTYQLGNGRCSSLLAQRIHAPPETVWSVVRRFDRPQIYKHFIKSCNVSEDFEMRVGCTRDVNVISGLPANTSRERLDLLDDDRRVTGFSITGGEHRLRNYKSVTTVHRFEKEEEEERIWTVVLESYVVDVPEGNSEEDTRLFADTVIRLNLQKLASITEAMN; partner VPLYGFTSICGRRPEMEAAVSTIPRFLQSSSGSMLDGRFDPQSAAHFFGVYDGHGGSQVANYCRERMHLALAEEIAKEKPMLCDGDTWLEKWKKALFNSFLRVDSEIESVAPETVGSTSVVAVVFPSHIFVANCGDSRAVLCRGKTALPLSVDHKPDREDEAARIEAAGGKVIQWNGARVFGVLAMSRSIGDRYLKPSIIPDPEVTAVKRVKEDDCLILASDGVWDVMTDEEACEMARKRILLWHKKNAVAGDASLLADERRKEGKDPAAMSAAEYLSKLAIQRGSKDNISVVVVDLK
Substitution | relative binding score
I33M | 91.3%
E109M | 101%
C60S | 86.8%
V121S | 31.4%
P36E | 98.4%
S140T | 53.7%
F157T | 56%
K58V | 87.6%
D144F | 74.2%
S9F | 97.5%
A175M | 93%
T73W | 95.5%
R132T | 107%
S11D | 99.2%
L93H | 112%
R163C | 75.7%
K54S | 23.8%
F103A | 9.45%
N177C | 98.9%
Q2I | 106%
S171K | 96.5%
D97C | 99.7%
V118L | 101%
N177W | 81.6%
D65C | 93.1%

Block 2 — method: protein-binding microarray; molecule type: double-stranded DNA, one strand shown; sample: in vitro; concentration: 2540 nM top; notes: 60-bp whole probe; with: salmon DNA 0.4 mg/ml; baseline: random background probes; reading: higher = stronger binding; constant ends, left off below: GCCTAGCAC … GTCTTGATTCGCTTGACGCTGCTG
Target: Interferon regulatory factor 3, full length, phosphomimetic (IRF3, Homo sapiens, UniProt Q14653, residues 1-427, S386D/S396D/S398D/S402D/T404D/S405D)
Construct (chain): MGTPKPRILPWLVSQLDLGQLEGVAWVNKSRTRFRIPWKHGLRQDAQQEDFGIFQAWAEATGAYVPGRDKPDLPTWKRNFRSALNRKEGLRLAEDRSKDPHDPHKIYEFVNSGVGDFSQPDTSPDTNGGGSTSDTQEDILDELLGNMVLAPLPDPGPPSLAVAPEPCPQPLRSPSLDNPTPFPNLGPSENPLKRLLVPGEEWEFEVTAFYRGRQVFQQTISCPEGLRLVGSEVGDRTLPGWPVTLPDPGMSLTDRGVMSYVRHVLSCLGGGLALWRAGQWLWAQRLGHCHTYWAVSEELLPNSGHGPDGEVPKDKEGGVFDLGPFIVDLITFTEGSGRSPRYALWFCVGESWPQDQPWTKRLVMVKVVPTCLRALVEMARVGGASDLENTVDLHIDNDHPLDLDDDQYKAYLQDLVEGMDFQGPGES
Sequence | fitted relative affinity [z-score]
TTGGGTTTCGGGTTTCGGTTAGTGCTA | 4.89
TCATATGTCCTGTCTACAACTGTGCTA | 0.989
TTAGAACTGGGGTTCCGATTAGTGCTA | 0.868
GACGGACTGGGGTTTCGTGACGTGCTA | -0.367
TCATGTTTGGGCATTTTTACTGTGCTA | -0.281
TCAAAAATCCCATTAAAACTGTGCTAG | 0.864
GACGGTTTCCATATCCTGACGTGCTAG | 6.92
TCATAACTCATTTTCATACTGTGCTAG | 1.47
GACGGACTGCTTATGCTGACGTGCTAG | -0.572
GACGGACTGGGTCTCGGGAAGTGCTAG | -0.953
GACGGTTTCGGTATCGGGTCGTGCTAG | 8.04
GACGGACTGTTTCTCCTGACGTGCTAG | 1.16
GACGATTCCGGGTATCGAGACGTGCTA | 0.626
TTAGATTACGGGTTTCGATTAGTGCTA | 1.75
GTAGGTTTCGGTCTCGGTTAGTGCTAG | 8.26
TTAGGTATCCGTATCCTTTAGTGCTAG | 4.62
GACGGTCTCGGTCTCGAGACGTGCTAG | 1.59
GACAGTTTCGGACTGGGGACGTGCTAG | 4.27

Block 3 — target: CCNE2, cyclin fold, Cln2 fusion (human); method: yeast growth competition, sequencing; sample: yeast; notes: strong parent motif; baseline: not given; reading: higher = stronger binding
Parent: SCAPER docking peptide (human); SNARRSLNFGGST; partner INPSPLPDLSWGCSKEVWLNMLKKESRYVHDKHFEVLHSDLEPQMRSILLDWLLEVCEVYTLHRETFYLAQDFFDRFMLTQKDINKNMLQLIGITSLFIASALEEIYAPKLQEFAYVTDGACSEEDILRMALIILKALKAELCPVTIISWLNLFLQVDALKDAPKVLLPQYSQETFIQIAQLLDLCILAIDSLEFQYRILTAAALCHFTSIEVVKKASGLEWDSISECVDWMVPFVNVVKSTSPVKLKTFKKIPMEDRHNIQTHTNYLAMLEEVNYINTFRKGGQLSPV
Substitution | normalised enrichment score
L7D | 0.642
S12M | -0.184
S1P | 0.995
S12N | 1.88
R5S | 0.442
F9C | 0.0639
R4N | 0.659
G10A | 1.04
N2C | 1.03
R4K | 1.01
L7C | 0.736
R5K F9L | 0.15
S12C | 1.21
L7K | 0.664
N2P | 1.43
R5F | 0.175
L7R | 0.307
N2A | 1.53
G10T | 1.21
S6Y | 1.69
S1K | 0.983
T13D | 2.1
N2G | 2
T13P | 1.24

Block 4 — target: BATF3, bZIP domain (human); method: DHFR protein complementation; sample: yeast; baseline: wild-type JUN-FOS pair; reading: higher = stronger binding
Notes: single substitutions, most at no-binding floor
Parent: JUN, bZIP domain (human); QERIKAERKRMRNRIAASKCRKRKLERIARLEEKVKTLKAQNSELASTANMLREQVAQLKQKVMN; partner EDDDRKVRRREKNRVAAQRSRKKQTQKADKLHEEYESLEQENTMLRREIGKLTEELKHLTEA
Substitution | binding fitness [natural log]
Q41H | 0.146
E54I | 0.186
L38I | 0.127
L31M | 0.24
E33I | 0.118
I28Y | 0.162
T48Y | 0.15
K39F | 0.0103
R53G | 0.0469
L38Q | 0.117
A46G | 0.0939
V35M | 0.12
Q55L | -0.0135
E32R | 0.201
L38V | 0.171
S47F | 0.223
L31G | -0.033
K39E | 0.162
E33L | 0.172
T37E | 0.228

Block 5 — method: protein-binding microarray; molecule type: hairpin DNA; sample: in vitro; concentration: not given; baseline: not given; reading: higher = stronger binding
Target: Cyclic AMP-dependent transcription factor ATF-1, full length (ATF1, Homo sapiens, UniProt P18846, residues 1-271)
Notes: whole hairpin DNA, median over replicate spots
Residues (chain): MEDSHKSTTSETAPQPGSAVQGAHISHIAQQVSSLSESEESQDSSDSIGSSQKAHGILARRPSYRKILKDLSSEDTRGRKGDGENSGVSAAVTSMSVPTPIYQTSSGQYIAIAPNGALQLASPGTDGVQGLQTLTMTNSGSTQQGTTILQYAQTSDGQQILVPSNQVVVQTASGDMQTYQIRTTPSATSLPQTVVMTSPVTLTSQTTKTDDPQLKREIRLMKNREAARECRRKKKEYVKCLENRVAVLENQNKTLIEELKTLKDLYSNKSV
Sequence | median fluorescence [a.u.]
GAGGCCGACGCGGTCGTGCCTCCTGGCACGACCGCGTCGGCCTCACACTC (5mC at 9 15 29 33 35) | 3400
GAGGCCGGATGACGCGAGCCTCCTGGCTCGCGTCATCCGGCCTCACACTC (5mC at 15) | 10300
GAGGCCGGATGACGGCAGCCTCCTGGCTGCCGTCATCCGGCCTCACACTC (5mC at 30) | 4690
GAGGCCGGCTGAGGTCAGCCTCCTGGCTGACCTCAGCCGGCCTCACACTC | 3350
GAGGCCGGCTGAGGTCAGCCTCCTGGCTGACCTCAGCCGGCCTCACACTC (5mC at 32) | 3130
GAGGCCGGCTGACGTCAGCCTCCTGGCTGACGTCAGCCGGCCTCACACTC | 11600
GAGGCCGACGACCGCGTGCCTCCTGGCACGCGGTCGTCGGCCTCACACTC (5mC at 9 13 15 29 35) | 3590
GAGGCCGGCTGAAGTCAGCCTCCTGGCTGACTTCAGCCGGCCTCACACTC | 3140
GAGGCCGGCTCACGTCAGCCTCCTGGCTGACGTGAGCCGGCCTCACACTC (5mC at 11) | 4640
GAGGCCGACGAGGTCGTGCCTCCTGGCACGACCTCGTCGGCCTCACACTC (5mC at 9 15 29 33 35) | 3070
GAGGCCGGATGACGCGAGCCTCCTGGCTCGCGTCATCCGGCCTCACACTC | 6530
GAGGCCCGATGACGTCAGCCTCCTGGCTGACGTCATCGGGCCTCACACTC (5mC at 37) | 13900
GAGGCCGGATGACGTCCGCCTCCTGGCGGACGTCATCCGGCCTCACACTC | 7930
GAGGCCGGATGACCTCAGCCTCCTGGCTGAGGTCATCCGGCCTCACACTC (5mC at 14) | 3110
GAGGCCGGATGACGCGAGCCTCCTGGCTCGCGTCATCCGGCCTCACACTC (5mC at 15 29) | 8690
GAGGCCCGCTGACGTCAGCCTCCTGGCTGACGTCAGCGGGCCTCACACTC (5mC at 7) | 13400
GAGGCCGACGACGCGGTGCCTCCTGGCACCGCGTCGTCGGCCTCACACTC (5mC at 9 29 35) | 4290
GAGGCCGGATGACGGCAGCCTCCTGGCTGCCGTCATCCGGCCTCACACTC | 4580
GAGGCCCGATGACGTCAGCCTCCTGGCTGACGTCATCGGGCCTCACACTC (5mC at 7 37) | 14800
GAGGCCGCATGACGTCAGCCTCCTGGCTGACGTCATGCGGCCTCACACTC | 14000
GAGGCCAGATGACGTCAGCCTCCTGGCTGACGTCATCTGGCCTCACACTC | 13900
GAGGCCGGCTGACGTCTGCCTCCTGGCAGACGTCAGCCGGCCTCACACTC | 5430
GAGGCCGGCTGACGCGAGCCTCCTGGCTCGCGTCAGCCGGCCTCACACTC (5mC at 15) | 5880
GAGGCCGGCTGACGTCAGCCTCCTGGCTGACGTCAGCCGGCCTCACACTC (5mC at 13 31) | 3310
GAGGCCGGCTGACCTCAGCCTCCTGGCTGAGGTCAGCCGGCCTCACACTC (5mC at 14) | 3100

Single results of other studies
Molecule | target | test | system | conditions | how to read | endpoint | value
PhoQ, residues 284 288 289 292 302 303 SSYNSA | PhoP, residues 12 14 15 18 19 NQGLL (Escherichia coli, UniProt P23836) | Sort-seq, item: YFP reporter | E. coli | PhoQ-PhoP variant library, with: 10 µM Mg2+ | baseline: high Mg2+ state, higher = stronger signaling | fold induction | 6.92
